Measured values pooled from the literature.
A part holds a random share of what one study measured.

Sample 1
Target: RNA binding protein fox-1 homolog 2, RRM domain, GST-SBP tag (RBFOX2, Homo sapiens, UniProt O43251-10, residues 100-194)
Technique: RNA Bind-n-Seq
Molecule type: RNA
Sample: in vitro
Concentration: 365 nM
Notes: natural RNA segment, single round, ends assumed
Reference: no-protein control
Reading: higher = stronger binding
Measurement: RBNS enrichment (R)
Shared flanks, not repeated: GGGAGUUCUACAGUCCGACGAUC … UGGAAUUCUCGGGUGCCAA
Construct (chain): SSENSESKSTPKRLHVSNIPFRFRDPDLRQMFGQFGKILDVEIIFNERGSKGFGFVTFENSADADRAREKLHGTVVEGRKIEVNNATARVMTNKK
Strand = GACUCAGAGGCCACACUGAUUUGUGCUGCAUCCAGACCCCCGUCUCCCUCCCCACCACCAUUCCUUGCUUCCUGCCCAGCCCGCUUCACUUCUCCCGGGACCAUCCUGAU; result = 2.73
Strand = GCUUUUGGAUCAUUUCGGGCCAGUAGGACCAUGGGCAGAGCUCCUUAACACUGCUGUGGUAAAUCCACGGUCCAAGCCCAGGCGGGCUGAGAAGAGAGAUGGCCUGAGCA; result = 0.547
Strand = AGCUGGAGUUGGAUGACGAACUCAAGAGUGUGGAGAACCAGGUGCGCUACGCCCAGAUCCAGCUGGACAAGCUCAAGAAAACCAAUGUCUUCAAUGCCACCUUCCACAUC; result = 0.272
Strand = ACAUAAUAAUUGAAAGUGGCAAUUCCUCUGGAGCUGUCUGCCAAAAGAAACUGCCUACAGACAUCAUCACAGCAGCCUCCUCACUUGGGUACUACCGUGUGGAAGCUGUG; result = 0.279
Strand = UGCUCUGGGCCCAUGAGGCCUACUUCUUCCUUUUCUCAUGGAAUCCUGGGUAGAAUCUUAAUAAUAGAAGGACUUAGAGAGAAAAUCAAAUCCACCCUCCUUGUGGGGAA; result = 0.363
Strand = AAGGAGUCUCAGAGAUCAUCUCCUUUUUUUUCCAUAUCUACAACCUCAUUUUUCCCACAGUGGAGAUUUGGAAGAUGUCCCAAUUUAAUGUAGGUGUUUUCAUCUGUCAU; result = 0.553
Strand = UUCGAGAUGAAUGUAAACUGUAUUCUUUUGAAAUGUGCAAGUGUUUGAUUCAUGCCAUUUGAUAAACUUCUGCCUUGUAGUCAUUGUUUGAUGGGACCAACUUGUAAAGU; result = 1.5
Strand = UCAGGCCACACCAGGUUCCCUCUGCAAGGGCCUCGGCUCAGUCGUGUGCACUUCCUCGGAGAGCCUUGGGCUGCCACGUCCACCCCGGGCUCUGCCCGUCCUGUUCUGCC; result = 0.244
Strand = GUGUCCUGGCAGAUGAUCAGUACAGUGUCCCCCUCAAGUCACACUUUCCUGCCUUACACAGAGCAGUAGCAUACCAUCCCUCUGGAGGGUAGGGGACCCCUGCGGUUCCA; result = 0.356
Strand = CUGUCGCCCAGGCUGAAGUGCGGUGGCGCGAUCUCGGCUCACUGCAAGCUCCACCUCCCAGGUUCACGCCAUUCUCCUGCCUCAGCCUCCCUAGUAGUUGGGACUACAGG; result = 0.517
Strand = CAAUCAAAGCACUUGGACUCUUGCUCUUUCUACUCUGAACUAAUAAAUCUGUUGCCAAGCUGGCUAGGAUCCGCUUUUUUUCAGCAAACACUGAGCACACAUUUUGCUAG; result = 0.464
Strand = AUCAUCGGGAAAAAACUUUGCUCCAGGCAUCACUGAUUCCCUCUCCCACCCAAGGAGAACGUUUGGUACAAUCGACAUCCUAGCCCCACCCAGAGGUGGCCCUCCCAGGC; result = 0.387

Sample 2
Target: Interferon regulatory factor 5, full length, phosphomimetic (IRF5, Homo sapiens, UniProt Q13568-2, residues 1-514, S451D/S453D/S456D/S462D)
Technique: protein-binding microarray
Molecule type: double-stranded DNA, one strand shown
Sample: in vitro
Concentration: 940 nM top
Notes: 60-bp whole probe
Added: salmon DNA 0.4 mg/ml
Reference: random background probes
Reading: higher = stronger binding
Measurement: fitted relative affinity
Shared flanks, not repeated: GCCTAGCAC … GTCTTGATTCGCTTGACGCTGCTG
Strand = TGAACTTGGAATTTCCCTCTGTGCTAG; result = -0.476 z-score
Strand = TTAGGTATGGGTATCGGTTAGTGCTAG; result = 3.06 z-score
Strand = GACGGTATCGACTTTCGGGATGTGCTA; result = 4.54 z-score
Strand = GACTGACTGGGTATCGGGACGTGCTAG; result = 0.969 z-score
Strand = TTAGGTTTAGGTTTCGGTTAGTGCTAG; result = 9.09 z-score
Strand = TTAGATATCAGTCTGGATTAGTGCTAG; result = -0.325 z-score
Strand = GACGGTTTCGGTCTCAGGACGTGCTAG; result = 13.5 z-score
Strand = TCAACTCAGCACTTTGGCACTGTGCTA; result = -0.465 z-score
Strand = CACAGTTTGTAAATCTTTTTGTGCTAG; result = 0.0436 z-score
Strand = GAAGGACTGGACACTGGGGACGTGCTA; result = -0.645 z-score
Strand = GACGGTTTTGACTTTCGGGACGTGCTA; result = 1.62 z-score
Strand = TTTGATTTCGGGTTTCGATTAGTGCTA; result = 6.39 z-score
Strand = TTAGGCTTCCTTCTCCTTTAGTGCTAG; result = 0.276 z-score
Strand = TTAGGAGTGGGTATCGGTTAGTGCTAG; result = 4.04 z-score
Strand = TTATTTATAAATTATCTTTAAGTGCTA; result = 0.0935 z-score
Strand = AACGGTCTCGGTCTCGGGACGTGCTAG; result = 4.23 z-score
Strand = ACTTCATTGCATATAGAAAAGTGCTAG; result = -0.123 z-score
Strand = GTTTATTTATTTTTACATTAGTGCTAG; result = 0.807 z-score
Strand = TTCTGAATGCCCTCTAACTTCGTGCTA; result = 0.168 z-score
Strand = TTAGGTCTTGGTCTCGGTTAGTGCTAG; result = 2.97 z-score
Strand = GACGGTCTCGGTCTCGGGTCGTGCTAG; result = 5.76 z-score
Strand = GTGGGGGGTGTGAGTGGGTGGTGCTAG; result = 3.45 z-score
Strand = GACGGTTTAGGTTTCGGGACGTGCTAG; result = 5.21 z-score
Strand = TACGATTTCGGGACTGGAGACGTGCTA; result = -0.0257 z-score

Sample 3
Target: Transcription factor SOX-2, HMG box (SOX2, Homo sapiens, UniProt P48431, residues 19-118)
UniProt P48431, sequence (19-118, looked up): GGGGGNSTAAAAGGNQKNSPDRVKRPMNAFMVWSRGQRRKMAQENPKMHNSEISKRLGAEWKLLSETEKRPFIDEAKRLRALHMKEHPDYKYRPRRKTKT
Technique: protein-binding microarray
Molecule type: double-stranded DNA, one strand shown
Sample: in vitro
Concentration: not given
Notes: k-mer, scored over probes, only values ≥0.25
Reading: higher = stronger binding
Measurement: E-score
Strand = CCAATTC; result = 0.295
Strand = ATTCAAA; result = 0.363
Strand = AACAATA; result = 0.485
Strand = ATTGGGA; result = 0.274
Strand = ATGAAAT; result = 0.325
Strand = CCATTGA; result = 0.351
Strand = CTGAATC; result = 0.296
Strand = TAAAGAA; result = 0.261
Strand = AGACAAT; result = 0.464
Strand = GATAATA; result = 0.354
Strand = TGAATAA; result = 0.387
Strand = ATTGTGA; result = 0.401
Strand = AATGGGA; result = 0.253
Strand = AATAAAG; result = 0.296
Strand = ATCAATA; result = 0.358
Strand = TCAATGA; result = 0.349
Strand = AGACAAA; result = 0.331
Strand = AATGAAA; result = 0.254
Strand = AATTATA; result = 0.408
Strand = AATAGGG; result = 0.297
Strand = AATACAC; result = 0.257
Strand = CAATAAA; result = 0.309
Strand = AATAATC; result = 0.344
Strand = CAATGTA; result = 0.291
Strand = ATGAATG; result = 0.462

Sample 4
Target: Sal-like protein 4, full length isoform A (SALL4, Homo sapiens, UniProt Q9UJQ4, residues 1-1053)
UniProt Q9UJQ4, sequence (whole entry, looked up): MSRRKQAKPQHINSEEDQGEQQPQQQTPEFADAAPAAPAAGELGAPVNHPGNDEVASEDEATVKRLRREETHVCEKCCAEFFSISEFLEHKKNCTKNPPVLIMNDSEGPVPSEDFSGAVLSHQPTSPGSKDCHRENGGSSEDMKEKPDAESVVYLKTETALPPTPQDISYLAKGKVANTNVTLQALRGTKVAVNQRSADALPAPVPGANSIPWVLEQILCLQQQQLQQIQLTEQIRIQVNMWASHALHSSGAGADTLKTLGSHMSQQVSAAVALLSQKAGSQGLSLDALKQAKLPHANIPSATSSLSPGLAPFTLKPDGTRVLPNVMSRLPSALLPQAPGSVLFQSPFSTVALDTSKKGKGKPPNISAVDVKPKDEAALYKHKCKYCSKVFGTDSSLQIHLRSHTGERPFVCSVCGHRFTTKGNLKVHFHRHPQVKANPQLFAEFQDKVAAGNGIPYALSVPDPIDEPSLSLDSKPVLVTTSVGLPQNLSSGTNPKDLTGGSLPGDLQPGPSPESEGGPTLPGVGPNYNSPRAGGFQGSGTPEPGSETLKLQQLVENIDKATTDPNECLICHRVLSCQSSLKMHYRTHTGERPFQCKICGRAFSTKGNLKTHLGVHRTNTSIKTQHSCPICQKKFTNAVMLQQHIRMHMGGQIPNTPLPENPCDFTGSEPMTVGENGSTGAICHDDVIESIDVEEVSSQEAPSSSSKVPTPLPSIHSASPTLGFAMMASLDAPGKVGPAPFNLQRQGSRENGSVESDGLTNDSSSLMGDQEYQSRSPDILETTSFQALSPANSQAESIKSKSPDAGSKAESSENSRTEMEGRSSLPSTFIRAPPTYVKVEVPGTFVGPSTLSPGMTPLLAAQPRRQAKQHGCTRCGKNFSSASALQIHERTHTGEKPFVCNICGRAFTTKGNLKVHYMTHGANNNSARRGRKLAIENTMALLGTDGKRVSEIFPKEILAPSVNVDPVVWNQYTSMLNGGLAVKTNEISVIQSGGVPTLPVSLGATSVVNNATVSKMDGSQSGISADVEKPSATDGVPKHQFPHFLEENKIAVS
Technique: universal PBM
Molecule type: double-stranded DNA, one strand shown
Sample: in vitro
Concentration: 600 nM
Notes: 8-mer, flanks averaged, mean of replicates
Reading: higher = stronger binding
Measurement: E-score
Strand = AAACCCCA; result = -0.0415
Strand = CCTGTAAC; result = 0.00966
Strand = CACAAAAG; result = -0.0132
Strand = CTCTCGAA; result = -0.0567
Strand = GATATTCA; result = 0.258
Strand = ATTTACAC; result = 0.173
Strand = GCCGCACC; result = -0.295
Strand = GAGTCTCA; result = -0.0565
Strand = AGCCACCC; result = -0.259
Strand = TGAGAACA; result = 0.121
Strand = GTGAGCGA; result = -0.169
Strand = AGCATCTA; result = 0.165
Strand = AACGACCT; result = -0.0816
Strand = AATACCAC; result = 0.142
Strand = CGGCTCGA; result = -0.294
Strand = ACAAAACG; result = 0.143
Strand = GACGGCGA; result = -0.245
Strand = CCATTACA; result = 0.279
Strand = AGGCGACG; result = -0.256
Strand = AGTAGACA; result = 0.0428
Strand = CTAGTGAA; result = -0.0318
Strand = AGGAGATG; result = 0.0792
Strand = CTGCTGGA; result = -0.0785
Strand = CAATGTAA; result = 0.276
Strand = GCGCGCGC; result = -0.111

Sample 5
Target: Ras GTPase-activating protein-binding protein 1, C-terminal RGG region (G3BP1, Homo sapiens, UniProt Q13283)
UniProt Q13283, sequence (whole entry, looked up): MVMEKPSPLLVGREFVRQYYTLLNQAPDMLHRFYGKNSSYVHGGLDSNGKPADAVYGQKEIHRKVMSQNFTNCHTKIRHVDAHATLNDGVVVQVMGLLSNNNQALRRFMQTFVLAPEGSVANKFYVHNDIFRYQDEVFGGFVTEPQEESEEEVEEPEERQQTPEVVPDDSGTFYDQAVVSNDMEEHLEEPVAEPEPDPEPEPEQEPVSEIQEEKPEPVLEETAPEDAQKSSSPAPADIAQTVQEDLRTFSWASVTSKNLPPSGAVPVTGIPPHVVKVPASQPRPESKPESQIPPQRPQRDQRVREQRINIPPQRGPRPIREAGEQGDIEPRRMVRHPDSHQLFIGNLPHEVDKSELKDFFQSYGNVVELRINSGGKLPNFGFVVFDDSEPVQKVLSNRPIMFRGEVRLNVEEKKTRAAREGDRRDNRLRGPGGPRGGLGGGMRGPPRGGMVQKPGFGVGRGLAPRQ
Technique: RNA Bind-n-Seq
Molecule type: RNA
Sample: in vitro
Concentration: 1 µM
Notes: whole 134-nt RNA, ends assumed
Added: 150 mM KCl
Reference: input library
Reading: higher = stronger binding
Measurement: log2 enrichment
Shared flanks, not repeated: GGGAGUUCUACAGUCCGACGAUC … UGGAAUUCUCGGGUGUCAAGG
Strand = UCAAGUCCUGUGCUACACAUCGUAUGUACCGAAUCGGGUUUGGUUUGGUUUGGGGAAAGUAUUAUGUUACGCCGUUCGGAUCUGCACUUC; result = -1.26
Strand = GCAGGAAGUAAAAACAAAUGGAAAUGCUUCGGAUAGUGGCAGGGGUGGGGGUUAAAAAGGAAAGGGUGGGAUGGGAGUGGGUAAAGAGUU; result = 1.92
Strand = AAGUCCUGUGCUACACAUCGUAUGUACCGAAUCGGGAAAAGGGAAAAGGGGAAAAGGAAAGUAUUAUGUUACGCCGUUCGGAUCUGCACU; result = -1.33
Strand = GCAGGAAGUAAAAACAAAUGGAAAUGCUUCGGAUAGUGGCAGGGGUGGGGGUUGCUAAGGAAAUGGUGGGAUGGGAGUGGGUAAAGAGUU; result = 2.03
Strand = GCAGGAAGUAAAAACAAAUGGAAAUGCUUCGGAUAGUGGCAGGGGUUGGGGUUGCUAAGGAAAGGGUGGGAUGGGAGUGGGUAAAGAGUU; result = 0.48
Strand = CUCAAGUCCUGUGCUACACAUCGUAUGUACCGAAUCGGGGUGGGGUGGGGUGGAAAGUAUUAUGUUACGCCGUUCGGAUCUGCACUUCCA; result = 1.39
Strand = UGGGAGGUGGAUUUUGUUUAUUUUUUUAGCUCAUUUCCAGGGGUGGGAAUUUUUUUUUAAUAUGUGUCAUGAAUAAAGUUGUUUUUGAAG; result = 3.73
Strand = UUGGAUGAAGAUGGCAAAGUCCUGACCCCGGAGGAGCUGCUCUACCGGGUAAGGGGGCCUCCUCUGCCAGACCCUAGAGACCUCUCUGGG; result = -1.63
Strand = GCAGGAAGUAAAAACAAAUGGAAAUGCUUCGGAUAGUGGCAGGGGUGGGGGUUGCUAAGGAAAGGGUGGGAUGGGAGAGGGUAAAGAGUU; result = 1.18
Strand = CCUGUGCUACACAUCGUAUGUACCGAAUCGGGAAAAAAAGGGGAAAAAAAGGAAAAAAAGGAAAGUAUUAUGUUACGCCGUUCGGAUCUG; result = -1.64
Strand = UGGGAGGUAGAUUUUGUUUAUUUUUUUAGCUCAUUUCCAGGGGUGGGAAUUUUUUUUUAAUAUGUGUCAUGAAUAAAGUUGUUUUUGAAA; result = 3.27
Strand = UGGCCCUGGUGGCAUGCGGGGAGGAAGAGGUGGCCUCAUGGAUCGUGGUGGUCCCUGUGGAAUGUUCAGAGGUGGCCGUGGUGGAGACAG; result = 1.85
Strand = GUCCUGUGCUACACAUCGUAUGUACCGAAUCGGGGAAAGGGGAAAAAGGGGAAAGGGGAAAGUAUUAUGUUACGCCGUUCGGAUCUGCAC; result = 3.13
Strand = CUGUGCUACACAUCGUAUGUACCGAAUCGGGGAAAAAGGGGAAAAAAAGGGGAAAAAGGGGAAAGUAUUAUGUUACGCCGUUCGGAUCUG; result = 0.0555
